Published values gathered from unrelated publications.
A part holds a random share of what one study measured.

Block 1
Target: Interferon regulatory factor 7, full length, phosphomimetic (IRF7, Homo sapiens, UniProt Q92985, residues 1-503, S471D/S472D/S475D/S476D/S477D/S483D/S484D/S487D)
Sequence of UniProt Q92985 (whole entry, unmodified, looked up): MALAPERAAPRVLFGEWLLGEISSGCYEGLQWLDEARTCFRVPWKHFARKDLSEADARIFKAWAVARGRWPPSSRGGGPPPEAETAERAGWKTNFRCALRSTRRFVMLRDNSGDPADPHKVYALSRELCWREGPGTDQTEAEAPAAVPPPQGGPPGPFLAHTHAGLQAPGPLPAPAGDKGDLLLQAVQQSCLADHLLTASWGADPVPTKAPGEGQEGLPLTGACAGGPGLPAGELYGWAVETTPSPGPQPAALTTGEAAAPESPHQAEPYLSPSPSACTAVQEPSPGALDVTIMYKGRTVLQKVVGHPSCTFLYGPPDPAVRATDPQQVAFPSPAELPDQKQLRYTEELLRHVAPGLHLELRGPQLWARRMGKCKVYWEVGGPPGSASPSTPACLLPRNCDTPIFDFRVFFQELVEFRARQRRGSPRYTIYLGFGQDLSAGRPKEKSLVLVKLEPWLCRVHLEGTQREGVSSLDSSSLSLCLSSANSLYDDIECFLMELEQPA
Method: protein-binding microarray
Form: double-stranded DNA, one strand shown
Matrix: in vitro
Concentration: 2200 nM top
Notes: 60-bp whole probe
Together with: salmon DNA 0.4 mg/ml
Reference: random background probes
Reading: higher = stronger binding
For `GCCTAGCACAGAAACTGTGAGGAGGGGAAGTGCTAGGTCTTGATTCGCTTGACGCTGCTG`, “fitted relative affinity” read -0.173 z-score.
`GCCTAGCACTTAGATCTCGGTCTCGGTTAGTGCTAGGTCTTGATTCGCTTGACGCTGCTG` — result for “fitted relative affinity”: 0.79 z-score.
Under “fitted relative affinity”, `GCCTAGCACTTGGATTTCGGGTATCGATTAGTGCTAGTCTTGATTCGCTTGACGCTGCTG` is recorded as 2.8 z-score.

Block 2
Target: Sal-like protein 4, full length isoform A (SALL4, Homo sapiens, UniProt Q9UJQ4, residues 1-1053)
Sequence of UniProt Q9UJQ4 (whole entry, looked up): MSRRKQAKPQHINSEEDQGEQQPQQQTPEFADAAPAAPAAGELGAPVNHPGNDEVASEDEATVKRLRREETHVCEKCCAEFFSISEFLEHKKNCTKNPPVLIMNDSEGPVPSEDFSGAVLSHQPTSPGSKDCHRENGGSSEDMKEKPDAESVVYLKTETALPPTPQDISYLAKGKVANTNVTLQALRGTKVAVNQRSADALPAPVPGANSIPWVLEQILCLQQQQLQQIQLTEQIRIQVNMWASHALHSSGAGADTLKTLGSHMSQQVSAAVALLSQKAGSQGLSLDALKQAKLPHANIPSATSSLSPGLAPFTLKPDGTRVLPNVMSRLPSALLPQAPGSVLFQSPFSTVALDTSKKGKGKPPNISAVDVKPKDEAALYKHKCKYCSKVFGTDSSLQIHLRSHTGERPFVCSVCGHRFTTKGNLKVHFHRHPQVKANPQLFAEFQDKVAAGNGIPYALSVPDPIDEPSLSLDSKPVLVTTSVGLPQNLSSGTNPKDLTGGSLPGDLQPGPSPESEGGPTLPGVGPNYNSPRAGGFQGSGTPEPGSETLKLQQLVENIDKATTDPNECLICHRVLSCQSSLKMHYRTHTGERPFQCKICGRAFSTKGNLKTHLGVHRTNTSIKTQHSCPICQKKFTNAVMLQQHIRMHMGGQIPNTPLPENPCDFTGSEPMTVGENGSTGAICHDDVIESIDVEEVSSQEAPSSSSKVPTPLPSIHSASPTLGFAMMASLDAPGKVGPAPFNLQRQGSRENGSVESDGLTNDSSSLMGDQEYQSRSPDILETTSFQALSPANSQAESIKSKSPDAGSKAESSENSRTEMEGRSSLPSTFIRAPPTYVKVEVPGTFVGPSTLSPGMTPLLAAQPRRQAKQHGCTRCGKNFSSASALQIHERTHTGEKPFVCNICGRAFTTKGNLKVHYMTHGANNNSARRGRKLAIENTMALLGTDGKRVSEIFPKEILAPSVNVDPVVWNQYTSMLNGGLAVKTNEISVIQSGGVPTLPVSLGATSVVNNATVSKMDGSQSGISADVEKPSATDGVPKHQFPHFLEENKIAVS
Method: universal PBM
Form: double-stranded DNA, one strand shown
Matrix: in vitro
Concentration: 600 nM
Notes: 8-mer, flanks averaged, mean of replicates
Reading: higher = stronger binding
`AGCTGGAC` gave an E-score of -0.113.
The E-score of `TATTGCCA` is reported as 0.199.
With `GCGGGACA` the E-score was -0.213.
With `GCAAGTAC` the E-score was 0.0235.

Block 3
Target: Histone acetyltransferase KAT6A, winged helix 1, GST fusion (KAT6A, Homo sapiens, UniProt Q92794, residues 1-85)
Method: protein binding microarray
Form: double-stranded DNA, one strand shown
Matrix: in vitro
Concentration: not given
Notes: 8-mer, flanks averaged, mean of 2 arrays, mostly near background
Reference: not given
Reading: higher = stronger binding
Residues (chain): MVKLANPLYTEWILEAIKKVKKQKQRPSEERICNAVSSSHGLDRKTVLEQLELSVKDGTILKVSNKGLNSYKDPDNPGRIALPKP
For `AAATACGT`, the E-score was -0.204.
`ATCAAGAA` has an E-score of -0.168.
`AAGAGATG` gave an E-score of -0.285.
`CCGGCGAG` has an E-score of 0.271.

Further values, each from its own experiment
With `PhoQ, residues 284 288 289 292 302 303 SLCLSL` the fold induction was 9.72 (PhoP, residues 12 14 15 18 19 TPWLV (Escherichia coli, UniProt P23836); Sort-seq, measured: YFP reporter; E. coli; PhoQ-PhoP variant library, together with: 10 µM Mg2+; reference: high Mg2+ state, higher = stronger signaling).

Some of these lines once more (block 2):
The E-score of `TATTGCCA` is reported as 0.199.
With `GCGGGACA` the E-score was -0.213.
